# Measurements collected from several papers.
# Each line is one published result; not all experiments were run side by side.
# Sequence of UniProt Q8N4C8 (whole entry, looked up): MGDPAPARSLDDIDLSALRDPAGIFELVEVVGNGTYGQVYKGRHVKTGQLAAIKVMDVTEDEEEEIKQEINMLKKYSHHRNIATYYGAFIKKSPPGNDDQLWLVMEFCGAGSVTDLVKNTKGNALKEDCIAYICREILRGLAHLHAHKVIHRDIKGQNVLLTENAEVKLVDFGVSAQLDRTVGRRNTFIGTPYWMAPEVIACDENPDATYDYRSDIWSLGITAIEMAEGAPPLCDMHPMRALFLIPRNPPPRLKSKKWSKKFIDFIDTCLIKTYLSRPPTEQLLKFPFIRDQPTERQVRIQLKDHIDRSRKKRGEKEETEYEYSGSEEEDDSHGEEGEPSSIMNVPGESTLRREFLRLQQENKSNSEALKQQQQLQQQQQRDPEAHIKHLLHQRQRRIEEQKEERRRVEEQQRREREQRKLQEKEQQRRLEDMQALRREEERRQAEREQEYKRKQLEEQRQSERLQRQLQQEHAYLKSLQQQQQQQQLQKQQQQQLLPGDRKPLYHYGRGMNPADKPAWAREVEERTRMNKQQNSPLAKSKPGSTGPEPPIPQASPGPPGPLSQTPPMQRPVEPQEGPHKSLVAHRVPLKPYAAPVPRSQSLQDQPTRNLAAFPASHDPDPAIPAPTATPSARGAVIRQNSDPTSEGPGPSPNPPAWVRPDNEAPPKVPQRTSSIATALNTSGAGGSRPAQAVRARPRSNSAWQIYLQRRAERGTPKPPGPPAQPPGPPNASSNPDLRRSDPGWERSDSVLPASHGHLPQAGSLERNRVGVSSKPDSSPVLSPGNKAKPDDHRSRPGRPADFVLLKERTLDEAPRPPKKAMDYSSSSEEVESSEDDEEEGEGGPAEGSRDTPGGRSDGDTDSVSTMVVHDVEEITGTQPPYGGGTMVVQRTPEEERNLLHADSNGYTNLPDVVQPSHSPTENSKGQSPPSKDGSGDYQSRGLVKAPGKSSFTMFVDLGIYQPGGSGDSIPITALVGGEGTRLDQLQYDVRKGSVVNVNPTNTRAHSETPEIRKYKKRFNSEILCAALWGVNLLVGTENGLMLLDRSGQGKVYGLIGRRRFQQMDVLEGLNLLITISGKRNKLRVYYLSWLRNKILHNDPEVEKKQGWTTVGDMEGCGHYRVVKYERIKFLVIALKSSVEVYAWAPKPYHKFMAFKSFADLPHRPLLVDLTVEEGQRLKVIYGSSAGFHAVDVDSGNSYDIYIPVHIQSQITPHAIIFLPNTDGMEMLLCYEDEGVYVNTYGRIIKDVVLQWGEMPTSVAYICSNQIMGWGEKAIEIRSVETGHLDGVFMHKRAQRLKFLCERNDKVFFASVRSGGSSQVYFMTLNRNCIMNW
# Sequence of UniProt Q8N752 (whole entry, looked up): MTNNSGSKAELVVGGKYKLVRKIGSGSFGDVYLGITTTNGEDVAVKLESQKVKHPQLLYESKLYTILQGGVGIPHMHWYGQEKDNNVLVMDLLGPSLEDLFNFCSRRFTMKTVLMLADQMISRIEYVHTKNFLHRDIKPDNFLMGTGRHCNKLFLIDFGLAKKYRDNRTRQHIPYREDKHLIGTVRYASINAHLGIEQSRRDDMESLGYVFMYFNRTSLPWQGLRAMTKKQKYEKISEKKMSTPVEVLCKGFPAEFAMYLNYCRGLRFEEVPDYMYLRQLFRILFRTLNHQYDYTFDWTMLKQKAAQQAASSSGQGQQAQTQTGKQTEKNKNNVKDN
# Sequence of UniProt P80192 (whole entry, looked up): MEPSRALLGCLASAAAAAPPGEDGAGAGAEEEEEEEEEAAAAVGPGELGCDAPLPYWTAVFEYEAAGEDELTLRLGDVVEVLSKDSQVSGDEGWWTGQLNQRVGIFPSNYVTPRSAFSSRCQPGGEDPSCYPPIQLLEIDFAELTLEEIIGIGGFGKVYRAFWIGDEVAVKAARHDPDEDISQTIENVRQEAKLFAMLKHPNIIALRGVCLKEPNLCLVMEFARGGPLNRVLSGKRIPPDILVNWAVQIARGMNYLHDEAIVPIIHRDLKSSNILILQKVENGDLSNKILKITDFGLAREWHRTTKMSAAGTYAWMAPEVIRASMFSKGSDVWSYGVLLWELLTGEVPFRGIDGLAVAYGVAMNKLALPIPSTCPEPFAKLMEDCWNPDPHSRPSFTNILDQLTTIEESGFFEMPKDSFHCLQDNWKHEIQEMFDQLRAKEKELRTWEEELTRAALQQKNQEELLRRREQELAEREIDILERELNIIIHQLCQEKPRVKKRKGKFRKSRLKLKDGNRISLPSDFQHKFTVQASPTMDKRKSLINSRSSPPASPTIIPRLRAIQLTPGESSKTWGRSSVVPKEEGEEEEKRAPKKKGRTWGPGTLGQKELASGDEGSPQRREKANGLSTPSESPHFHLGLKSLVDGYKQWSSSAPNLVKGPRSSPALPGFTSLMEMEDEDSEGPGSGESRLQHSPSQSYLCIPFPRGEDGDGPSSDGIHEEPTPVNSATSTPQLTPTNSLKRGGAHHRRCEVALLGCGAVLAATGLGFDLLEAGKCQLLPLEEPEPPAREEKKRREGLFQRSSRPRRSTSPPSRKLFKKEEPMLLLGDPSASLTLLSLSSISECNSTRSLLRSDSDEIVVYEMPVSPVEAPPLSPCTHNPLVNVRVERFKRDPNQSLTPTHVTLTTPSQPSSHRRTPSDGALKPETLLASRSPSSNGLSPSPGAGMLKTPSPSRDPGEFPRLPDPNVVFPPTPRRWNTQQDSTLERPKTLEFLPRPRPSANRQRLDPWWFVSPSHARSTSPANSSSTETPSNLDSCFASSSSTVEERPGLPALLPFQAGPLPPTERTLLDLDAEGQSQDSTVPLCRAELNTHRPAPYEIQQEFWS
# Sequence of UniProt P10721 (whole entry, unmodified, looked up): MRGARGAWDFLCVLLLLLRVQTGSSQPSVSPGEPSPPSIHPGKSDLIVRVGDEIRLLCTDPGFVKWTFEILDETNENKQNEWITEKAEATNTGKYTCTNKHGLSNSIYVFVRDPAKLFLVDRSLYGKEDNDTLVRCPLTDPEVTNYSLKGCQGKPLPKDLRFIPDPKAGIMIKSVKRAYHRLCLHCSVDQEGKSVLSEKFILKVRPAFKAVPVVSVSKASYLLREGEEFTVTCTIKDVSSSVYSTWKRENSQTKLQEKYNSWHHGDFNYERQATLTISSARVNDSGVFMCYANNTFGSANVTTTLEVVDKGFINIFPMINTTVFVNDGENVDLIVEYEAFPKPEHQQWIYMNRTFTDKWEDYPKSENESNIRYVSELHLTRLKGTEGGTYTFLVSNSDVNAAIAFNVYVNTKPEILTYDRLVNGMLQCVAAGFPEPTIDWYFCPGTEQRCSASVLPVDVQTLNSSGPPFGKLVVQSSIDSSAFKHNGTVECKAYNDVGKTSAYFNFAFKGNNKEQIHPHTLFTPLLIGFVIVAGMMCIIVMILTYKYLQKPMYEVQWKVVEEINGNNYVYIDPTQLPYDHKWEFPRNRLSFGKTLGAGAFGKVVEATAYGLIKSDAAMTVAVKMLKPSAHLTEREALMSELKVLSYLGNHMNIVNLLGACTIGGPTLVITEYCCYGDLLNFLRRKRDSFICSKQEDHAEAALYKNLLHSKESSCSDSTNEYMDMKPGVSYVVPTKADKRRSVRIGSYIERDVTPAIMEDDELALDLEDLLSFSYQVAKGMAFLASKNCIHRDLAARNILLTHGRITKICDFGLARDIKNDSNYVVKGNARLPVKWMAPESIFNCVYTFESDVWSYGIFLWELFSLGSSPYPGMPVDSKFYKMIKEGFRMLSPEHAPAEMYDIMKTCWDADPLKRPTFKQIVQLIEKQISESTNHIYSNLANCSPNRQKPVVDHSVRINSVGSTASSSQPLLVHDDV
# Sequence of UniProt P29597 (whole entry, looked up): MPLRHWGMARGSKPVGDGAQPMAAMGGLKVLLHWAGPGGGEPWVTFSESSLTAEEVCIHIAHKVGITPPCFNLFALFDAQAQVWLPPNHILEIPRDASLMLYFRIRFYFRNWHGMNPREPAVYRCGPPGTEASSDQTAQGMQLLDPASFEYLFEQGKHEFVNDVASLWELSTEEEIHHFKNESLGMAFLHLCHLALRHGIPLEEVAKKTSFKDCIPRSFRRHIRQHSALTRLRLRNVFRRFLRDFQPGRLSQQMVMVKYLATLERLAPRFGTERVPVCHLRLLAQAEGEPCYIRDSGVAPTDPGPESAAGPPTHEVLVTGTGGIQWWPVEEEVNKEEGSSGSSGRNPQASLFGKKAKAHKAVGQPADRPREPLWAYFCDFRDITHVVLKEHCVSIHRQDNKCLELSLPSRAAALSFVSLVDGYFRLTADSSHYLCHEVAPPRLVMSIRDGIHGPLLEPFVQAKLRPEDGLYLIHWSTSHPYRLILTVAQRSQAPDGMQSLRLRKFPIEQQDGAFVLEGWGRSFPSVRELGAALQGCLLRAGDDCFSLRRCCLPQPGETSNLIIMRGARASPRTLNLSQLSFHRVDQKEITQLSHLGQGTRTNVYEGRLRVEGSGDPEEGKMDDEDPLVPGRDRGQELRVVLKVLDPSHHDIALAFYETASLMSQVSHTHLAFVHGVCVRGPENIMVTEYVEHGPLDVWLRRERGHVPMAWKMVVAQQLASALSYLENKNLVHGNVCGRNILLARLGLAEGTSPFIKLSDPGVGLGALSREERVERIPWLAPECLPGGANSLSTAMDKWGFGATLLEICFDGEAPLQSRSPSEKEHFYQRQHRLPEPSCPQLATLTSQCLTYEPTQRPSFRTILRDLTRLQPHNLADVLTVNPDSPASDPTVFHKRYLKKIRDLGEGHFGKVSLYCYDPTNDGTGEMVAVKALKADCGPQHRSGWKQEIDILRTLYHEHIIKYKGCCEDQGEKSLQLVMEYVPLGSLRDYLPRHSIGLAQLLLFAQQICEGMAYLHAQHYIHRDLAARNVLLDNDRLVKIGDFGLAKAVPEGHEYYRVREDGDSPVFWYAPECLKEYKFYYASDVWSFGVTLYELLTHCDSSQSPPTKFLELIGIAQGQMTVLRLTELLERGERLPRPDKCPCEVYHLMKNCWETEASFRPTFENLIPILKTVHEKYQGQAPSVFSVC
SMILES,tested on,test,test system,conditions,measurement,result
CC(=NNC(=O)c1ccc(N)cc1)c1ccc(Nc2nnc(-c3ccc(Cl)cc3)c3ccccc23)cc1,MCF7,"cell growth or viability, MTT",,10 µM,cell death,92.2%
O=C1CC[C@H](N2Cc3cc(N4CCN(CC5CCN(c6ccc([C@@H]7c8ccc(O)cc8CC[C@@H]7c7ccccc7)cc6)CC5)CC4)ccc3C2=O)C(=O)N1,,,"female Sprague-Dawley rat, plasma","oral, 20 mg/kg, fed",Cmax,1430 ng/mL
COc1ccc(C(=O)C#Cc2ccc(F)c(F)c2)cc1,Pseudomonas aeruginosa,"microbial growth, absorbance",,"10 µM, 24 h",activity vs control,99%
C1=C/COCc2cc(ccc2OCCN2CCCC2)Nc2nccc(n2)-c2cccc(c2)COC/1,"Mast/stem cell growth factor receptor Kit (KIT, Homo sapiens, UniProt P10721, T670I/V559D)",binding,,0.1 µM,remaining binding,19%
COc1cccc(OC)c1-c1cc(C(=O)NC2(C(=O)O)C3CC4CC(C3)CC2C4)nn1-c1ccc(C(=O)N(C)CCCN(C)CCCN(C)C(=O)CN2CCN(CC(=O)[O-])CCN(CC(=O)[O-])CCN(CC(=O)[O-])CC2)cc1C(C)C.[177Lu+3] (stereo not shown),HT-29 tumour model,,"host not given, heart","intravenous, 4 h, tumour-bearing",tracer uptake,1.7 %ID/g
CCN(O)N=Nc1ccc(S(=O)(=O)Nc2onc(C)c2C)cc1,,ABTS scavenging,,180 µg/mL,inhibition,45.2%
CC(=NNC(=O)c1ccccc1)c1ccc(Nc2nnc(-c3ccc(Cl)cc3)c3ccccc23)cc1,MCF7,"cell growth or viability, MTT",,5 µM,cell death,94.8%
CNc1ncc2c(/C=C/C(=O)N3CCC(OC)CC3)nn(Cc3cccc(C(F)(F)F)c3)c2n1,"Mitogen-activated protein kinase kinase kinase 5 (MAP3K5, Homo sapiens, UniProt Q99683)","enzyme activity, inhibitor, radiometric",,1 µM,remaining activity,84%
COc1cccc(-c2n[nH]c(SCc3ccccn3)n2)c1OC,,,"male Sprague-Dawley rat, plasma","oral, 30 mg/kg, 30 min, single dose",concentration,50500 ng/mL
C=CC(=O)N1CCC(COCC(=O)N2CCN(c3nc(-c4cnc(N)nc4C(F)F)nc(N4CCOC[C@@H]4C)n3)CC2)CC1,"Casein kinase I isoform alpha-like (CSNK1A1L, Homo sapiens, UniProt Q8N752)","binding, competition with immobilised ligand",,1 µM,remaining binding,97%
CCCN(O)N=Nc1ccc(S(=O)(=O)Nc2nccs2)cc1,,ABTS scavenging,,240 µg/mL,inhibition,61.3%
COc1cc(-c2cncc3c2CN(C)Cc2cc(N4CCNCC4)ccc2-3)cc(OC)c1OC,"Misshapen-like kinase 1 (MINK1, Homo sapiens, UniProt Q8N4C8)","enzyme activity, inhibitor",,1 µM,remaining activity,61%
Nc1ccn([C@@H]2O[C@H](CO)[C@@H](O)C2(F)F)c(=O)n1,MCF7,"cell growth or viability, MTT",,"0.3125 µg/mL, 24 h",viability,90.4%
S=C(Nc1ccccc1)Nc1ccc(Oc2nnc(-c3ccc(Cl)cc3)c3ccccc23)cc1,MCF7,"cell growth or viability, MTT",,"5 µM, 24 h",viability,2.7%
CCCCC(=O)Nc1ccc(-c2ccc3ncn(CCC)c(=O)c3c2)cn1,"Non-receptor tyrosine-protein kinase TYK2, JH2 (TYK2, Homo sapiens, UniProt P29597)","binding, competition with immobilised ligand",,0.5 µM,remaining binding,100%
CC(=NNC(=O)c1ccccc1Br)c1ccc(Nc2nnc(-c3ccc(Cl)cc3)c3ccccc23)cc1,MCF7,"cell growth or viability, MTT",,10 µM,cell death,94.2%
Cc1noc(NS(=O)(=O)c2ccc(N=NN(O)c3ccccc3)cc2)c1C,,ABTS scavenging,,20 µg/mL,inhibition,31.9%
Cc1cc([C@@H](C)Nc2ccccc2C(=O)O)c2nc(N3CCC(F)(F)CC3)c(C#N)c(=O)n2c1,"Mitogen-activated protein kinase kinase kinase 9 (MAP3K9, Homo sapiens, UniProt P80192)","binding, competition with immobilised ligand",,10 µM,remaining binding,100%
CCN(O)N=Nc1ccc(S(=O)(=O)Nc2nccs2)cc1,,ABTS scavenging,,300 µg/mL,inhibition,57.2%
CC(=NNC(=O)c1ccccc1Cl)c1ccc(Nc2nnc(-c3ccc(Cl)cc3)c3ccccc23)cc1,MCF7,"cell growth or viability, MTT",,"1.25 µM, 24 h",viability,62.1%
Clc1ccccc1/C=N/N=C/c1ccccc1Cl,,DPPH scavenging,,,IC50,2020 µM
Cc1cccc(N(O)N=Nc2ccc(S(=O)(=O)Nc3cc(C)on3)cc2)c1,,ABTS scavenging,,180 µg/mL,inhibition,72.8%
CN(Cc1ccc(C2(C(F)(F)F)CC2)cc1)Cc1cccc2ccccc12,Trichophyton rubrum,"microbial growth, disc diffusion",ATCC28188,"0.016 µg/mL, 6 days",inhibition zone,43.5 mm
Cc1[nH]c(C)c(C2CCC(c3ccc(Cl)cc3)CC2)c(=O)c1Cl (stereo not shown),HEK293,cell growth or viability,,,IC50,> 10 µM
COc1cc(C#CC(O)c2ccccc2OC)ccc1O (stereo not shown),Pseudomonas aeruginosa,"microbial growth, absorbance",,"10 µM, 24 h",activity vs control,96%
Cc1cc(NS(=O)(=O)c2ccc(N=NN(C)O)cc2)no1,,ABTS scavenging,,240 µg/mL,inhibition,49.8%
CC(=NNC(=O)c1ccncc1)c1ccc(Nc2nnc(-c3ccc(Cl)cc3)c3ccccc23)cc1,MCF7,"cell growth or viability, MTT",,"0.625 µM, 24 h",viability,4.47%
Fc1cccc(/C=N/N=C/c2cccc(F)c2)c1,,DPPH scavenging,,,IC50,1670 µM
CCCN(O)N=Nc1ccc(S(=O)(=O)Nc2cc(C)on2)cc1,,ABTS scavenging,,20 µg/mL,inhibition,7.5%
O=C(Nc1ccc(Oc2nnc(-c3ccc(Cl)cc3)c3ccccc23)cc1)c1ccccc1,MCF7,"cell growth or viability, MTT",,"0.312 µM, 24 h",viability,4.69%
CN(Cc1ccc(C(C)(C)C)cc1)Cc1cccc2ccccc12,Trichophyton rubrum,"microbial killing, broth dilution",ATCC28188,6 days,MFC,250 µg/mL

# A few entries again:
SMILES,tested on,test,test system,conditions,measurement,result
CCN(O)N=Nc1ccc(S(=O)(=O)Nc2onc(C)c2C)cc1,,ABTS scavenging,,180 µg/mL,inhibition,45.2%
CC(=NNC(=O)c1ccccc1)c1ccc(Nc2nnc(-c3ccc(Cl)cc3)c3ccccc23)cc1,MCF7,"cell growth or viability, MTT",,5 µM,cell death,94.8%
CNc1ncc2c(/C=C/C(=O)N3CCC(OC)CC3)nn(Cc3cccc(C(F)(F)F)c3)c2n1,"Mitogen-activated protein kinase kinase kinase 5 (MAP3K5, Homo sapiens, UniProt Q99683)","enzyme activity, inhibitor, radiometric",,1 µM,remaining activity,84%
COc1cccc(-c2n[nH]c(SCc3ccccn3)n2)c1OC,,,"male Sprague-Dawley rat, plasma","oral, 30 mg/kg, 30 min, single dose",concentration,50500 ng/mL
